# Results of several laboratories.
# Numbered parts are unrelated; each lists some results of a single study.
# Chain of UniProt Q96PY6 (whole entry, looked up): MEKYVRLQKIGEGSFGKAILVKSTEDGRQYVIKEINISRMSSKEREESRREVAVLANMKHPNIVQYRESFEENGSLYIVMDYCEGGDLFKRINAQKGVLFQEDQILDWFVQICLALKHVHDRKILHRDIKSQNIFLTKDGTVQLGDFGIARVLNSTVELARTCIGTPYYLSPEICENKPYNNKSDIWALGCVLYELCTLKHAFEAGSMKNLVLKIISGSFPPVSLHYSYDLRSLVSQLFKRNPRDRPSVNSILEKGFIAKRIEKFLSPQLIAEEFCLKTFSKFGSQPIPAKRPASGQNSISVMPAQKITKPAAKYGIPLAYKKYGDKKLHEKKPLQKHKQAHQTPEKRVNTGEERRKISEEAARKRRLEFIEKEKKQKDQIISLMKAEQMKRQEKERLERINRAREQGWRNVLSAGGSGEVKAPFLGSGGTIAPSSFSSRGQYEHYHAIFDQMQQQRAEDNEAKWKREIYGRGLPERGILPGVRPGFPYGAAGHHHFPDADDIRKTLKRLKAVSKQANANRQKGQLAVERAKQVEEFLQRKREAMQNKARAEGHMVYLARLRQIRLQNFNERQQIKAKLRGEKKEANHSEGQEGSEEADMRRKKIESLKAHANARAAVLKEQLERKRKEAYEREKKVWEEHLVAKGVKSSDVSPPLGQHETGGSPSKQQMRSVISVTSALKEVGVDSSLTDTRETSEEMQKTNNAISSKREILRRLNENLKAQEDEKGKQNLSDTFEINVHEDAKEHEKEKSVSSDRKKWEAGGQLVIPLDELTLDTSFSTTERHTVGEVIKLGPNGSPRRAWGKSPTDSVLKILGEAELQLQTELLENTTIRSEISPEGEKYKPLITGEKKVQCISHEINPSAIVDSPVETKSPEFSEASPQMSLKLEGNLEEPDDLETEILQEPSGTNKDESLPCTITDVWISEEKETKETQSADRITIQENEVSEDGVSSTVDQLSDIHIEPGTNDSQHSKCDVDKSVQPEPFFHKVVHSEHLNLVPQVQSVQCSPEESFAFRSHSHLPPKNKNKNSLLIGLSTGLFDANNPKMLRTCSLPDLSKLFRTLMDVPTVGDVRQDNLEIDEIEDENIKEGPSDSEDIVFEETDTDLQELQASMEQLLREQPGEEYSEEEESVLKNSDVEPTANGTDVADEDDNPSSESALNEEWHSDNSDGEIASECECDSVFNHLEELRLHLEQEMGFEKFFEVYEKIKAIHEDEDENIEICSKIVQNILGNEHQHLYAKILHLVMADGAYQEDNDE
# Chain of UniProt P11362 (whole entry, looked up): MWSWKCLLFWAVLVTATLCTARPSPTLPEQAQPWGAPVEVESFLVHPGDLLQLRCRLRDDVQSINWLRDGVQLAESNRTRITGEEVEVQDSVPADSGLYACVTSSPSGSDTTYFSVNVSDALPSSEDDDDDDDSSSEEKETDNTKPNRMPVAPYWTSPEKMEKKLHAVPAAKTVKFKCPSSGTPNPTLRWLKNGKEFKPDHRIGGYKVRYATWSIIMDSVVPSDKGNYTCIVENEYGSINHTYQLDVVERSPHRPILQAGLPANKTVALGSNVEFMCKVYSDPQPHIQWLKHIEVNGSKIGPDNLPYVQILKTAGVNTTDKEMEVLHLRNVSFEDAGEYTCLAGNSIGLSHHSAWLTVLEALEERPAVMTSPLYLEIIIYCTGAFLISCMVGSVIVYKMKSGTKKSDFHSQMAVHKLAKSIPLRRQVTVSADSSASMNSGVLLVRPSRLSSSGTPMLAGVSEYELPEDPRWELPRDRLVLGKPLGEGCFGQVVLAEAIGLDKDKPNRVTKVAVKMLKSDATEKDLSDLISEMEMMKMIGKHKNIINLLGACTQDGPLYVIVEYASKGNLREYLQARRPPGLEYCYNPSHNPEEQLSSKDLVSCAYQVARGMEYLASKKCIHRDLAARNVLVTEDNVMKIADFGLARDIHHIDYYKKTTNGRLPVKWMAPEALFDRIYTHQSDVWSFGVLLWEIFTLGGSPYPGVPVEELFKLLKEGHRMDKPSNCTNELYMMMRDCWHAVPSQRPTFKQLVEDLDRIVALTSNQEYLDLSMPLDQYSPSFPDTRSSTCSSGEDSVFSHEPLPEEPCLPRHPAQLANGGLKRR
# Chain of UniProt Q6PHR2 (whole entry, looked up): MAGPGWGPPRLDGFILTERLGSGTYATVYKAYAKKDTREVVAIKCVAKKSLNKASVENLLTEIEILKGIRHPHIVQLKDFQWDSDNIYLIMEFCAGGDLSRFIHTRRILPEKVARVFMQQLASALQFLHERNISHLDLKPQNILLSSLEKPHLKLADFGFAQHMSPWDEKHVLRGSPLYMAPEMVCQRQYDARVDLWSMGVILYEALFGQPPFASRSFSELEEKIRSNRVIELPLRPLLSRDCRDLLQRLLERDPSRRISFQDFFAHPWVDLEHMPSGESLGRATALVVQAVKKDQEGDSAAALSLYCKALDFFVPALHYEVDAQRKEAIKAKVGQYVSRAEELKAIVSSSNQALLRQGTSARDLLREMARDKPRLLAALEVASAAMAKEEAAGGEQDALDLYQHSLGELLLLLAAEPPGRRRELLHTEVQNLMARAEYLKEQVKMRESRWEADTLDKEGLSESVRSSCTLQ
# Chain of UniProt P36896 (whole entry, looked up): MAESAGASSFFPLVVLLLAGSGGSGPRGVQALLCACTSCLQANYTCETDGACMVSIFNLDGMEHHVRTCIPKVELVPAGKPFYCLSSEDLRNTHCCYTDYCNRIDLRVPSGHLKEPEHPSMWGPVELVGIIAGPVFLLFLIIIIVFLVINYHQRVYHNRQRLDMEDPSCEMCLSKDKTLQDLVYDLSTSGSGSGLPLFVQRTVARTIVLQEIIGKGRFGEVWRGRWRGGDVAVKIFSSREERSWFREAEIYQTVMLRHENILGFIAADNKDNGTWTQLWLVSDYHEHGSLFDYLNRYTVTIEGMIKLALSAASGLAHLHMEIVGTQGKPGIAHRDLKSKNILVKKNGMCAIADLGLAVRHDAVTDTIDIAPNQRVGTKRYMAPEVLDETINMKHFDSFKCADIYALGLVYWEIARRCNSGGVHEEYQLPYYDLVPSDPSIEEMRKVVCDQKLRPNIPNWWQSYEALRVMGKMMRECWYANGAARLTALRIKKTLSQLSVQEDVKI
# Chain of UniProt P54762 (whole entry, looked up): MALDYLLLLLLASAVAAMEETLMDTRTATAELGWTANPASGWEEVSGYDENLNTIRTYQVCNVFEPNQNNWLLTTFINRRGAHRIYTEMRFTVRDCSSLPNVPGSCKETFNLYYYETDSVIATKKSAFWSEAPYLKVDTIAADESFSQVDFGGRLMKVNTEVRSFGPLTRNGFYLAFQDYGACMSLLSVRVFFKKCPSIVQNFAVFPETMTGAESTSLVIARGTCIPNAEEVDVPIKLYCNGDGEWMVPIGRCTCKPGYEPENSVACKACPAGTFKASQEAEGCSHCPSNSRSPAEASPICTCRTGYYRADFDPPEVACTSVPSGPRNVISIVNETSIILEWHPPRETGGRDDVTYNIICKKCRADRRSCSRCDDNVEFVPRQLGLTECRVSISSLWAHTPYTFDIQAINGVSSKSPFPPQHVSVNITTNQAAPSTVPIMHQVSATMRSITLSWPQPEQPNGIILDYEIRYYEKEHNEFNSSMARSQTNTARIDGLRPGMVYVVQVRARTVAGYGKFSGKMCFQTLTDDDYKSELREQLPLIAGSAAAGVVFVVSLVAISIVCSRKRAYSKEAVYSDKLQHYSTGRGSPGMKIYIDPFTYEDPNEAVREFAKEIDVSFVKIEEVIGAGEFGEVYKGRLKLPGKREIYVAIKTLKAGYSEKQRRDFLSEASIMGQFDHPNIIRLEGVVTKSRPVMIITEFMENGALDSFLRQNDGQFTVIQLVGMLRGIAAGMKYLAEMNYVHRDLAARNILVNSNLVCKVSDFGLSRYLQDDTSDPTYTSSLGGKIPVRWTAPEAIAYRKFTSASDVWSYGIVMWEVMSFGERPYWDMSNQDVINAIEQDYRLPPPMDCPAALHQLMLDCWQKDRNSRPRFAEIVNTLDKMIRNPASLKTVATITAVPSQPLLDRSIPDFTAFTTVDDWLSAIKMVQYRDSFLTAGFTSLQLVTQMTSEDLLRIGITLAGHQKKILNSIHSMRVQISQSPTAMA
# Chain of UniProt P78368 (whole entry, looked up): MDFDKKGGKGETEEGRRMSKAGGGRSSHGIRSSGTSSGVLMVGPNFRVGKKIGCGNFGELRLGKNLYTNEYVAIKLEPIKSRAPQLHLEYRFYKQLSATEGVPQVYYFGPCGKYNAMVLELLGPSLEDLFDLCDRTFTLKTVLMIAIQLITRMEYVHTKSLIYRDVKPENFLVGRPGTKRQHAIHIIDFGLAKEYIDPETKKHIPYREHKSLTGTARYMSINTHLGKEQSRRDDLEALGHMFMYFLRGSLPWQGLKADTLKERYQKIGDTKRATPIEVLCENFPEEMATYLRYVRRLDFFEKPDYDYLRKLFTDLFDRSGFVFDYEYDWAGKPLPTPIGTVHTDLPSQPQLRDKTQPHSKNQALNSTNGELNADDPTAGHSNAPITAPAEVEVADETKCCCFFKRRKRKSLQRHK

# Sample 1 — technique: protein-binding microarray; molecule type: double-stranded DNA, one strand shown; matrix: in vitro; tested at: 250 nM; notes: 60-bp whole probe; with: salmon DNA 0.4 mg/ml; baseline: random background probes; direction: higher = stronger binding; shared flanks, not repeated: GCCTAGCAC … GTCTTGATTCGCTTGACGCTGCTG
# Target: Interferon regulatory factor 7, full length, phosphomimetic (IRF7, Homo sapiens, UniProt Q92985, residues 1-503, S101K/S471D/S472D/S475D/S476D/S477D/S483D/S484D/S487D)
# Chain of UniProt Q92985 (whole entry, unmodified, looked up): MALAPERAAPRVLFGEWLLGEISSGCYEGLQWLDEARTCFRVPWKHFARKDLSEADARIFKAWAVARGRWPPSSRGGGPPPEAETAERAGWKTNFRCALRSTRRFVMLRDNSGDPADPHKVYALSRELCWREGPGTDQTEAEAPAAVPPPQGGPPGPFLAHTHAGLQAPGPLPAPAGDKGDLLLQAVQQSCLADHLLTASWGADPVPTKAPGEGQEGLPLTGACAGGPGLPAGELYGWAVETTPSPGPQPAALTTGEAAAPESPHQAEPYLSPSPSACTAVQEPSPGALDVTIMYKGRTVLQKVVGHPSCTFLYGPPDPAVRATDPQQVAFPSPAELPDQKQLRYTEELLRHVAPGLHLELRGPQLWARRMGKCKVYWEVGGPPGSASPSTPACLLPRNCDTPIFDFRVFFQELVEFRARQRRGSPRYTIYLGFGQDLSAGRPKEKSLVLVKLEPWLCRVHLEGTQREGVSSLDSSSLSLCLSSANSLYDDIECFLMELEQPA
Strand,log fluorescence [z-score]
GACGGTATCTTTATCCTGACGTGCTAG,-0.012
CTATTTTTCACCTGCACTCAGTGCTAG,1.53
GAAGATATCAGTATCGAGACGTGCTAG,-0.144
GACGGTATCGGTTGCGGGACGTGCTAG,0.635
GACGATATCGGGATTCGAGACGTGCTA,0.139
GACGGTCTCCGTATCGGGACGTGCTAG,-0.223
GACGGACTGCTACTTCTGACGTGCTAG,-0.553
TCATGTGTACATCTCTCACTGTGCTAG,-0.0563

# Sample 2 — read-out: cell-free assay; technique: competition with immobilised ligand; tested at: 1 µM
# SMILES: CO[C@H]1CC[C@H](CNc2ccc(S(=O)(=O)NC(=O)c3ccc(N4CCN(CC5=C(c6ccc(Cl)cc6)CC(C)(C)CC5)CC4)cc3Oc3cnc4[nH]ccc4c3)cc2[N+](=O)[O-])CC1
target,remaining binding [%]
"RAF1 (Homo sapiens, UniProt P04049)",94
"EPHB1 (Homo sapiens, UniProt P54762)",84
"EPHA5 (Homo sapiens, UniProt P54756)",78
"KIT (Homo sapiens, UniProt P10721, T670I/V559D)",88
"BMX (Homo sapiens, UniProt P51813)",95

# Sample 3 — read-out: enzyme activity; mode: inhibitor; tested at: 0.5 µM; baseline: control
# Structure (SMILES): COc1cc2c(cc1OC)-c1[nH]nc(Nc3cccc(F)c3)c1C2
target,remaining activity [%]
"TBK1 (Homo sapiens, UniProt Q9UHD2)",101
"NEK1 (Homo sapiens, UniProt Q96PY6)",93
"FRK (Homo sapiens, UniProt P42685)",67.9
"ACVR1B (Homo sapiens, UniProt P36896)",92.9
"FGFR1 (Homo sapiens, UniProt P11362)",99.2
"EPHA3 (Homo sapiens, UniProt P29320)",94.5
"TEK (Homo sapiens, UniProt Q02763)",92.5
"ULK3 (Homo sapiens, UniProt Q6PHR2)",96.5
"NEK6 (Homo sapiens, UniProt Q9HC98)",105
"MAPKAPK2 (Homo sapiens, UniProt P49137)",97.2
"MAP3K5 (Homo sapiens, UniProt Q99683)",99.9
"CSNK1G2 (Homo sapiens, UniProt P78368)",89.7

# Further values, each from its own experiment — technique: cross-linking MS; matrix: cell fractions
Molecule,partner,conditions,cross-linked residues
"GTF2A2 (Homo sapiens, UniProt P52657)","HERC5 (Homo sapiens, UniProt Q9UII4)",with: DMTMM,E86 to K952
"EIF4A1 (Homo sapiens, UniProt P60842)","EIF4G2 (Homo sapiens, UniProt P78344)",with: DSSO,K369 to K206
"RRS1 (Homo sapiens, UniProt Q15050)","RPF2 (Homo sapiens, UniProt Q9H7B2)",with: DMTMM,E94 to K244

# For quick reference, copied from above (sample 3):
target,remaining activity [%]
"NEK1 (Homo sapiens, UniProt Q96PY6)",93
"EPHA3 (Homo sapiens, UniProt P29320)",94.5
"NEK6 (Homo sapiens, UniProt Q9HC98)",105
"MAPKAPK2 (Homo sapiens, UniProt P49137)",97.2
